Assay results gathered from unrelated publications.
Lines come from different studies, so protocols differ. Numbers after ± are the reported error.
UCHL1: Ubiquitin carboxyl-terminal hydrolase isozyme L1 (UCHL1, Homo sapiens, UniProt P09936)
Sequence of UniProt P09936 (whole entry, looked up): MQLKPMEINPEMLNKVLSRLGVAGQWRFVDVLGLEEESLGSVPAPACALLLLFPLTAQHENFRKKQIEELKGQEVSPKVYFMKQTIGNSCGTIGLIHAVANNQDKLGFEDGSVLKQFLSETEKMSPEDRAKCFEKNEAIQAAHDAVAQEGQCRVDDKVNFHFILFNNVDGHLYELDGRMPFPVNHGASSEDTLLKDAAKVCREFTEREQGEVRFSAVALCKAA

| Compound | tested on | test | test system | conditions | scale | quantity | value |
| --- | --- | --- | --- | --- | --- | --- | --- |
| Cc1cnc(N2CC3(CCOCC3)C2)c(C(=O)Nc2ccc(C(=O)N3CCc4cc(C(=O)Nc5c(C)cccc5F)sc4-c4ccccc43)cc2)c1 | – | – | rat | intravenous, 0.1 mg/kg | relative to: hepatic blood flow | plasma clearance | ~50% |
| Cc1ccc(Nc2nc(NCc3ccco3)c3ccccc3n2)cc1 | Trypanosoma cruzi | reporter translation, Renilla luciferase mRNA translation | cell-free extract | 40 µM | relative to: DMSO | inhibition | 18.9% |
| C=CC[C@@H]1/C=C(\C)C[C@H](C)C[C@H](OC)[C@H]2O[C@@](O)(C(=O)C(=O)N3CCCC[C@H]3C(=O)O[C@H](/C(C)=C/[C@@H]3CC[C@@H](O)[C@H](OC)C3)[C@H](C)[C@@H](O)CC1=O)[C@H](C)C[C@@H]2OC | – | – | Wistar Kyoto rat, male, plasma | ip, 0.5 mg/kg/day, day 18 | – | plasma HCO3− level | 23.8 ± 1.2 mmol/L |
| CN(CCC#N)CC(=O)Nc1cccnc1Cl | UCHL1 | covalent, intact protein LC-MS | – | 12.5 µM | – | labelling | 13.9% |
| CC(C)c1nc(N(C)S(C)(=O)=O)nc(-c2ccc(F)cc2)c1/C=C/[C@@H](O)C[C@@H](O)CC(=O)O | – | – | rat, Wistar albino, plasma | oral, 20 mg/kg, 0 h | – | plasma concentration | 0 ng/mL |
| Cc1cc(C(=O)NC(C)(C)COc2cccc3c2C(N)=NS(=O)(=O)N3)cc(C)n1 | – | LC-MS metabolite profiling | Sprague-Dawley rat, both sexes, plasma | oral, 100 mg/kg of parent drug, 0.5 (unit not given) | higher = more metabolite | plasma peak area | 2.86e+06 a.u. |
| CC(NC(=O)C(C#N)=Cc1cc(O)ccc1[N+](=O)[O-])c1ccccc1 (centres unmarked) | UCHL1 | covalent, intact protein LC-MS | – | 12.5 µM | – | labelling | 9.91% |
| COc1cc(F)c([C@@H]2CNC(=O)[C@H]2NC(=O)Nc2ccccc2)c(F)c1 | – | – | Sprague-Dawley rats, LPS challenge, plasma | oral, 1 mg/kg, 3 h post dose | – | plasma concentration | 146 ± 42 nM |
| CCOCc1nc(O)c(-c2nnc(Cc3ccc(Cl)cn3)o2)c(O)c1-c1c(OC)cccc1OC | – | – | anaesthetised rat, plasma | intravenous infusion, 10 µg/kg/min, 15 min | – | plasma concentration | 1550 ± 48 nM |
| COc1cccc(-c2n[nH]c(SCc3ccccn3)n2)c1OC | – | – | Sprague-Dawley rats, both sexes | oral dietary, 30 mg/kg/day, day 7, 1 h | – | plasma concentration | 589 ng/mL |
| O=C1c2ccncc2C(=O)c2c1[nH]c1ccccc21 | – | – | Sprague-Dawley rat, male, plasma | intravenous, 1 mg/kg | – | plasma clearance | 23.9 ± 11.2 mL/min |

Some of these lines once more:
| Compound | tested on | test | test system | conditions | scale | quantity | value |
| --- | --- | --- | --- | --- | --- | --- | --- |
| Cc1ccc(Nc2nc(NCc3ccco3)c3ccccc3n2)cc1 | Trypanosoma cruzi | reporter translation, Renilla luciferase mRNA translation | cell-free extract | 40 µM | relative to: DMSO | inhibition | 18.9% |
